Measurements gathered from unrelated publications.
Every numbered part comes from another study and shows a few of its results, in no order.
UniProt P42336, sequence (whole entry, unmodified, looked up): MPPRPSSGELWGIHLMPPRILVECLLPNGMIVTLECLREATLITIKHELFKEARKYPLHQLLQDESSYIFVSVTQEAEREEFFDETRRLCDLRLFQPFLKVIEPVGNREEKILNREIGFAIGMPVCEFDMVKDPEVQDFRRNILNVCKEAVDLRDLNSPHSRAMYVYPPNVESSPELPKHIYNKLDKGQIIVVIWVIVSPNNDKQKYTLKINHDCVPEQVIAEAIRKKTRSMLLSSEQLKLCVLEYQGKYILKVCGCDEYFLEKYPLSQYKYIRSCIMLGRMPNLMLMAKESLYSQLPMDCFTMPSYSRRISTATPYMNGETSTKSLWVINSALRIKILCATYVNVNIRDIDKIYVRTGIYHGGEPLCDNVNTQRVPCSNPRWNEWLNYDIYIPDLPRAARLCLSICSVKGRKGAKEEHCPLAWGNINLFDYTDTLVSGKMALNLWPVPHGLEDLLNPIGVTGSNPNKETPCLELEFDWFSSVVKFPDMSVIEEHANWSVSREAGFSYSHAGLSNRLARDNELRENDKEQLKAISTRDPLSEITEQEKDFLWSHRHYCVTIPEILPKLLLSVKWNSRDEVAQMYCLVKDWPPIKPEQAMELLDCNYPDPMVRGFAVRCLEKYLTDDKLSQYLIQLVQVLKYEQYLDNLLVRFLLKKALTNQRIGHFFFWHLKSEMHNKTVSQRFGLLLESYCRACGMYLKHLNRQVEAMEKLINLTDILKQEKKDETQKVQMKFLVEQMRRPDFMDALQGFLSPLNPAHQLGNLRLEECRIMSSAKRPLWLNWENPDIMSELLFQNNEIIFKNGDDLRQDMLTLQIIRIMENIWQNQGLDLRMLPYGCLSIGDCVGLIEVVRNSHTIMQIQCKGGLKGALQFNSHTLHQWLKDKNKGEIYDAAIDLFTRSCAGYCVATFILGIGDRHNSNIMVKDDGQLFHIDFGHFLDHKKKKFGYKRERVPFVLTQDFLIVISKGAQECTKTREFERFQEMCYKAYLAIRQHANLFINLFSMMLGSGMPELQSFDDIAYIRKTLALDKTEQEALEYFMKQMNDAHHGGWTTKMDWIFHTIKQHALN
UniProt P10721, sequence (whole entry, looked up): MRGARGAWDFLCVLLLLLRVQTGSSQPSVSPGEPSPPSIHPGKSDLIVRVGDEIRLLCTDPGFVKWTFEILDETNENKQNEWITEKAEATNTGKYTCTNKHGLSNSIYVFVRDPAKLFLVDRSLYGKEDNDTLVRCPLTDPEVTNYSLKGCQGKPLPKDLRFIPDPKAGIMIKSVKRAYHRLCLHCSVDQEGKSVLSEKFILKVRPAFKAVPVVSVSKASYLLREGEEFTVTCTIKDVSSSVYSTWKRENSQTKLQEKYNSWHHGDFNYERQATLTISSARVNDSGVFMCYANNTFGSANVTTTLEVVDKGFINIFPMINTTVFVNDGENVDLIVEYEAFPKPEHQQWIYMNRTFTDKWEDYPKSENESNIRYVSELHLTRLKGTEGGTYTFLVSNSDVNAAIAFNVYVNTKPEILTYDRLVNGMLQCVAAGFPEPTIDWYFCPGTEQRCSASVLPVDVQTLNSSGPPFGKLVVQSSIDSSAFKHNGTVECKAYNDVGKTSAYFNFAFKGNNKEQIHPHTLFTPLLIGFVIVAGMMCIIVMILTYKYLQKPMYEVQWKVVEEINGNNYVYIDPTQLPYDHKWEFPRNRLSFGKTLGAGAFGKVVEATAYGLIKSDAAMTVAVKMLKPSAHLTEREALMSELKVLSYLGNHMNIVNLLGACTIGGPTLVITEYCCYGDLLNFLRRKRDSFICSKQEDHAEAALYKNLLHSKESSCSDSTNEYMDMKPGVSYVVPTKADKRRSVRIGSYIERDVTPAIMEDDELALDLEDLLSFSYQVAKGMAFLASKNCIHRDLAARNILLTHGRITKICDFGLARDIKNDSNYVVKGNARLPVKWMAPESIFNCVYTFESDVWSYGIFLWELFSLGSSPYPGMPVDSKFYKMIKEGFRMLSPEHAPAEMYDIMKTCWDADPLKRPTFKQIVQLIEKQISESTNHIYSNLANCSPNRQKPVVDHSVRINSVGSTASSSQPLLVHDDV
UniProt Q9UK32, sequence (whole entry, looked up): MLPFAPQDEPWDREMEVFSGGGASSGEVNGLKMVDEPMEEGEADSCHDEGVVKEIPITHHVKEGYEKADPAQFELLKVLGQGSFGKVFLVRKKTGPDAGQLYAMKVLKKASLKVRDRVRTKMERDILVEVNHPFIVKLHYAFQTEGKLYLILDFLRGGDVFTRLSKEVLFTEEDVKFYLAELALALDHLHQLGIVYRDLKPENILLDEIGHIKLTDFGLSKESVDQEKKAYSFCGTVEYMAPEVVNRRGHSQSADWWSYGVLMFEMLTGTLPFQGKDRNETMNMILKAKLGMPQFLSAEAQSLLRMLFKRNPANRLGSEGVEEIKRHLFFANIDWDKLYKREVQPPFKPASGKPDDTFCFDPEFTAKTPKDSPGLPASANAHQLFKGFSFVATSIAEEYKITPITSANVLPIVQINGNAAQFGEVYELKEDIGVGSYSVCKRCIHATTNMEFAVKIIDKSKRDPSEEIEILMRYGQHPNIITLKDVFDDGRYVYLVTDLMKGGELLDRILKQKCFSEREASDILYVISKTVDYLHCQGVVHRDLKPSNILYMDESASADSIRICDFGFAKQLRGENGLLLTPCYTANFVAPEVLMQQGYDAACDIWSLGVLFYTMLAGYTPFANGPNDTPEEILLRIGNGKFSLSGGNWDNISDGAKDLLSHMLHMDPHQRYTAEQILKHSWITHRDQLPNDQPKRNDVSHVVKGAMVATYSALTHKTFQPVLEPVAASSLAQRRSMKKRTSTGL
UniProt Q9P286, sequence (whole entry, looked up): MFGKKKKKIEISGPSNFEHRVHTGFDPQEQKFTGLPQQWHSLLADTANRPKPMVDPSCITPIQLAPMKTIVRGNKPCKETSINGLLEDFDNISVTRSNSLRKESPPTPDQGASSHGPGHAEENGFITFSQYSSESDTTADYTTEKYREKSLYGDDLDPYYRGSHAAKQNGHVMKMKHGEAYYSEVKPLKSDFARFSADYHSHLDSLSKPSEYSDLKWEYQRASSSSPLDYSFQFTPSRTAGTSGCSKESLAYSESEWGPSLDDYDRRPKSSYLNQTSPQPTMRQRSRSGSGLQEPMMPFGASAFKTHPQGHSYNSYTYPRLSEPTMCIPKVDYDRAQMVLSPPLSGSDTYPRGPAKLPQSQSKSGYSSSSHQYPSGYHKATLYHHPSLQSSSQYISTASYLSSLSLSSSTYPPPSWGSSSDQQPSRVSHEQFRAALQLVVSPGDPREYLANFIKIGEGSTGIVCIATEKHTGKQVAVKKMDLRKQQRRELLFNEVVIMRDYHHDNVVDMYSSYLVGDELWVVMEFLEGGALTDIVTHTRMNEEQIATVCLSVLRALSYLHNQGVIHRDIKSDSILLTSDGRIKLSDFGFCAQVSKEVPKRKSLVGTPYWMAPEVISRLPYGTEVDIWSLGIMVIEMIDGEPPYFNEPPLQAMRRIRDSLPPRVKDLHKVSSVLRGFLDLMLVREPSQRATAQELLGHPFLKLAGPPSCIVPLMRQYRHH
UniProt Q9BQI3, sequence (whole entry, looked up): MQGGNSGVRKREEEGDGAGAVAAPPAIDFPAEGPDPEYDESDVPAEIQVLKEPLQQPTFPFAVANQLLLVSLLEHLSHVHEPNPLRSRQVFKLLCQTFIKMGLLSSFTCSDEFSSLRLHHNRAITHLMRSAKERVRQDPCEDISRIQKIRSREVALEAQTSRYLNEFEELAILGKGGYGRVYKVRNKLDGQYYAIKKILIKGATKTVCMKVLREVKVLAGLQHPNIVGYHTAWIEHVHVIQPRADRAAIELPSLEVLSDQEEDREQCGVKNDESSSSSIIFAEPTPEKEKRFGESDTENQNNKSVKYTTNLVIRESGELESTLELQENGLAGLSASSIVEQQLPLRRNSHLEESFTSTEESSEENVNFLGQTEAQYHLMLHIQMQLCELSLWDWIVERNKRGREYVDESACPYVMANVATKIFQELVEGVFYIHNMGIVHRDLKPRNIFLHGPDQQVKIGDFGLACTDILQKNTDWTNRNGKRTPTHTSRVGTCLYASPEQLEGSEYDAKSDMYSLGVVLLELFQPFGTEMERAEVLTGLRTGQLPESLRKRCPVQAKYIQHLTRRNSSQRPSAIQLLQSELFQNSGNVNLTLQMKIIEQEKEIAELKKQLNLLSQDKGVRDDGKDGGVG
UniProt Q8WU08, sequence (whole entry, looked up): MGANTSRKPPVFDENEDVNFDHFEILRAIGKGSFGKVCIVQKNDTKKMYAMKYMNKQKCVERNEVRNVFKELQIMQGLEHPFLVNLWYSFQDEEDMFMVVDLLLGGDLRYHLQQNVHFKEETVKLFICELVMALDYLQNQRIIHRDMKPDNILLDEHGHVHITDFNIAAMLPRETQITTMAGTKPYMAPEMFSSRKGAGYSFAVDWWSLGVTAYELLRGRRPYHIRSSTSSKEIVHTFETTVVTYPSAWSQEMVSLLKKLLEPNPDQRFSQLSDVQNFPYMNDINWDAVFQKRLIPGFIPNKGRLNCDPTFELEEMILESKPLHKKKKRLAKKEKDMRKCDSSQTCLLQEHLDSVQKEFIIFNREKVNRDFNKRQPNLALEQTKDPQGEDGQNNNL

Sample 1
SMILES: Cc1ccc(NC(=O)c2ccnc(C(F)(F)F)c2)cc1-c1cc(OCCO)nc(N2CCOCC2)c1
Method: competitive binding panel
Tested at: 1 µM
Baseline: vehicle
target | assay | remaining binding
RIPK1 (Homo sapiens, UniProt Q13546) | – | 100%
DAPK1 (Homo sapiens, UniProt P53355) | – | 74%
STK32A (Homo sapiens, UniProt Q8WU08) | measured: YANK1 | 90%
NLK (Homo sapiens, UniProt Q9UBE8) | – | 100%
KIT (Homo sapiens, UniProt P10721) | – | 92%
RIPK2 (Homo sapiens, UniProt O43353) | – | 63%
PIK3CA (Homo sapiens, UniProt P42336, C420R) | – | 94%

Sample 2
Target: Calcium/calmodulin-dependent protein kinase type II subunit alpha (CAMK2A, Homo sapiens, UniProt Q9UQM7)
UniProt Q9UQM7, sequence (whole entry, looked up): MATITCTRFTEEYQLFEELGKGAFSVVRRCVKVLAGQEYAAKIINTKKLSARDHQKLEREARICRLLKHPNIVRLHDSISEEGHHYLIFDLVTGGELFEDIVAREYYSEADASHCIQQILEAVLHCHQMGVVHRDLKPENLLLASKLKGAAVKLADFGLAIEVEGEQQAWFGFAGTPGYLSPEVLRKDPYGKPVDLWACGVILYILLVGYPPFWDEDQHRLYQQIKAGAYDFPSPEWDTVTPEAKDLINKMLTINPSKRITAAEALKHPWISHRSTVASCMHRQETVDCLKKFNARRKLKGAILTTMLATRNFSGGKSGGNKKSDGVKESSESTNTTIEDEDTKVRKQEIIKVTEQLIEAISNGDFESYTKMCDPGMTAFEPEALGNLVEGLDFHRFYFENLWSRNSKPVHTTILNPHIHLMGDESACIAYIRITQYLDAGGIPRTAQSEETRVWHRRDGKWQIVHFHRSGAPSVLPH
Effect on: enzyme activity
Mode: inhibitor
Tested at: 10 µM
SMILES | inhibition [%]
C/C(=C\CC[C@@H](C)[C@H]1CC[C@@]2(C)C3=C(CC[C@]12C)[C@@]1(C)CCC(=O)C(C)(C)[C@@H]1CC3=O)C(=O)O | 35
CC(C)(C)NC(=O)[C@@H]1CN(Cc2cccnc2)CCN1C[C@@H](O)C[C@@H](Cc1ccccc1)C(=O)N[C@H]1c2ccccc2C[C@H]1O | -9
CC(=O)CCCC(C)CCCC(C)CCCC(C)C (stereo not drawn) | 44
O=C(/C=C/c1ccc(O)c(O)c1)O[C@H]1[C@H](O)C[C@](O)(C(=O)O)C[C@H]1OC(=O)/C=C/c1ccc(O)c(O)c1 | -5
O=C1CC(C(=O)O)c2c1oc(=O)c1cc(O)c(O)c(O)c21 (stereo not drawn) | -45
CC(C)NCC(O)c1ccc(O)c(O)c1 (stereo not drawn) | -13

Sample 3
Compound: CCS(=O)(=O)c1cc2cc(C[C@@](O)(CC(C)(C)c3ccc(F)cc3C(N)=O)C(F)(F)F)[nH]c2cn1
Effect on: cell-free assay
Method: competition with immobilised ligand
Tested at: 1 µM
target | remaining binding [%]
MAP3K19 (Homo sapiens, UniProt Q56UN5) | 76
RIOK2 (Homo sapiens, UniProt Q9BVS4) | 95
MAP4K1 (Homo sapiens, UniProt Q92918) | 100
Ribosomal protein S6 kinase alpha-6, C-terminal kinase domain (RPS6KA6, Homo sapiens, UniProt Q9UK32) | 0
PHKG1 (Homo sapiens, UniProt Q16816) | 67
Tyrosine-protein kinase ABL1, non-phosphorylated (ABL1, Homo sapiens, UniProt P00519, H396P) | 99
DSTYK (Homo sapiens, UniProt Q6XUX3) | 100
ACVR2B (Homo sapiens, UniProt Q13705) | 100
MAP3K12 (Homo sapiens, UniProt Q12852) | 83
GRK4 (Homo sapiens, UniProt P32298) | 100
EIF2AK1 (Homo sapiens, UniProt Q9BQI3) | 80
PAK5 (Homo sapiens, UniProt Q9P286) | 100
NEK10 (Homo sapiens, UniProt Q6ZWH5) | 88
Tyrosine-protein kinase JAK3, JH1 (JAK3, Homo sapiens, UniProt P52333) | 76
STK10 (Homo sapiens, UniProt O94804) | 100
PIK3CA (Homo sapiens, UniProt P42336, H1047Y) | 95

Sample 4
Organism: Plasmodium berghei
Mode: inhibitor
Cells: Huh-7
Strain: liver stage
Tested at: 10 µM
Time: 24 h
Baseline: untreated control
SMILES | infection rate [%]
CC(C(=O)O)c1ccc(-c2ccccc2)c(F)c1 (stereo not drawn) | 99.8
CCC1(C)CC(=O)NC1=O (stereo not drawn) | 88.2
C[C@]12CCC(=O)C=C1CC[C@@H]1[C@@H]2[C@@H](O)C[C@@]2(C)[C@H]1CC[C@]2(O)C(=O)COC(=O)CCC(=O)O | 90.7
COc1ccc2cc([C@H](C)CO)ccc2c1 | 86.7
C=CCc1ccc(O)c(OC)c1 | 128
CCN(CC)CCNC(=O)c1cc(Cl)c(N)cc1OC | 101
CC[C@H](C)C(=O)O[C@H]1C[C@@H](C)C=C2C=C[C@H](C)[C@H](CC[C@@H]3C[C@@H](O)CC(=O)O3)[C@H]21 | 83.4
